Published values from different studies.
Compare with care: the assays were run in different laboratories.
Organism: Staphylococcus aureus

N=C(N)NCCC[C@H](NC(=O)[C@H](Cc1c[nH]c2ccccc12)NC(=O)[C@@H](N)CCCNC(=N)N)C(=O)N[C@@H](Cc1c[nH]c2ccccc12)C(=O)N[C@@H](Cc1ccccc1)C(=O)N[C@@H](CCC(N)=O)C(=O)N[C@@H](Cc1ccccc1)C(=O)N[C@@H](CCC(N)=O)C(=O)N[C@@H](Cc1ccccc1)C(=O)N[C@@H](CCCCN)C(N)=O  MIC (broth microdilution, optical density; ATCC 25923): 71 µM
CN[C@H](CC(C)C)C(=O)N[C@H]1C(=O)N[C@@H](CC(N)=O)C(=O)N[C@H]2C(=O)N[C@H]3C(=O)N[C@H](C(=O)N[C@H](C(=O)O)c4cc(O)cc(O)c4-c4cc3ccc4O)[C@H](O)c3ccc(c(Cl)c3)Oc3cc2cc(c3O[C@@H]2O[C@H](CO)[C@@H](O)[C@H](O)[C@H]2O[C@H]2C[C@](C)(N)[C@H](O)[C@H](C)O2)Oc2ccc(cc2Cl)[C@H]1O  MIC (CRB, PBP4 deletion): 2 µg/mL
CC[C@H](C)[C@H](NC(=O)[C@H](Cc1ccc(O)cc1)NC(=O)[C@@H](NC(=O)[C@H](Cc1ccc(O)cc1)NC(=O)[C@@H]1CCCN1C(=O)[C@@H](NC(=O)[C@H](C)N)[C@@H](C)CC)[C@@H](C)CC)C(=O)N[C@@H](Cc1c[nH]c2ccccc12)C(=O)N[C@@H](CCCNC(=N)N)C(=O)N[C@@H](CC(C)C)C(=O)N[C@@H](CC(C)C)C(=O)N[C@@H](CCCNC(=N)N)C(=O)N[C@@H](CCCCN)C(=O)NCC(=O)O  MIC (broth microdilution; ATCC 19609; 18 h, 37 °C): 3.75 µM
CC[C@H](C)[C@H](NC(=O)[C@H](CC(C)C)NC(=O)[C@H](CCCNC(=N)N)NC(=O)[C@@H](N)CCCNC(=N)N)C(=O)N[C@@H](CCCNC(=N)N)C(=O)N[C@@H](CCCCN)C(=O)N[C@@H](CC(C)C)C(=O)N[C@@H](CCCCN)C(=O)NCC(=O)N[C@@H](CC(C)C)C(=O)N[C@@H](CCCCN)C(=O)N[C@@H](CCCCN)C(=O)N[C@@H](Cc1ccc(O)cc1)C(=O)N[C@@H](CC(C)C)C(=O)N[C@@H](Cc1ccc(O)cc1)C(=O)N[C@@H](Cc1ccccc1)C(=O)N[C@@H](CCCCN)C(=O)N[C@@H](CC(C)C)C(=O)N[C@@H](CCC(N)=O)C(=O)N[C@@H](CC(C)C)C(=O)N[C@@H](CC(C)C)C(=O)N[C@@H](CCCCN)C(=O)N[C@@H](CCCCN)C(N)=O  MIC (broth microdilution; KCTC 1621, Mueller-Hinton broth; added: NH4Cl 6 µM): 16 µM
CC[C@H](C)[C@H](NC(=O)[C@H](CC(C)C)NC(=O)[C@H](CCCCN)NC(=O)[C@@H](NC(=O)[C@H](C)NC(=O)[C@H](CCC(=O)O)NC(=O)[C@H](Cc1c[nH]cn1)NC(=O)[C@@H](NC(=O)[C@H](CCCCN)NC(=O)[C@H](CCC(N)=O)NC(=O)[C@H](Cc1ccccc1)NC(=O)[C@@H](N)C(C)C)[C@@H](C)CC)[C@@H](C)CC)C(N)=O  MIC (CLSI broth microdilution; ATCC 25923; 18 h, 37 °C): > 128 µM
CC[C@H](C)[C@H](NC(=O)[C@H](CC(C)C)NC(=O)[C@H](CCCNC(=N)N)NC(=O)[C@@H](N)CCCNC(=N)N)C(=O)N[C@@H](CC(C)C)C(=O)N[C@H](C(=O)N[C@@H](CCCCN)C(=O)N[C@H](C(=O)NCC(=O)N1CCC[C@H]1C(=O)N[C@H](C(=O)N[C@H](C(=O)N[C@@H](Cc1ccc(O)cc1)C(=O)N[C@@H](CCCCN)C(=O)N[C@@H](Cc1ccc(O)cc1)C(=O)N[C@@H](Cc1ccccc1)C(=O)N[C@@H](CCCCN)C(=O)N[C@@H](CCCCN)C(=O)N[C@@H](CCC(N)=O)C(=O)N[C@@H](CC(C)C)C(=O)N[C@@H](CC(C)C)C(=O)N[C@@H](CCCCN)C(=O)N[C@@H](CC(C)C)C(N)=O)[C@@H](C)CC)[C@@H](C)CC)[C@@H](C)O)[C@@H](C)O  MIC (broth microdilution; KCTC 1621, Mueller-Hinton broth; 24 h, 37 °C): 16 µM
CC[C@H](C)[C@H](N)C(=O)N[C@@H](CC(C)C)C(=O)NCC(=O)N[C@@H](CCC(=O)O)C(=O)N[C@H](C(=O)N[C@@H](Cc1c[nH]c2ccccc12)C(=O)N[C@@H](CCCCN)C(=O)NCC(=O)N[C@H](C(=O)N[C@@H](CCCCN)C(=O)N[C@@H](CC(=O)O)C(=O)N[C@H](C(=O)N[C@@H](CC(C)C)C(N)=O)[C@@H](C)CC)[C@@H](C)CC)[C@@H](C)CC  MIC (broth microdilution; ATCC 25923; added: human serum 10%): > 100 µM
CC[C@H](C)[C@H](NC(=O)CN)C(=O)NCC(=O)N[C@@H](C)C(=O)N[C@H](C(=O)N[C@@H](CC(C)C)C(=O)N[C@@H](CCCCN)C(=O)N[C@H](C(=O)N[C@@H](CC(C)C)C(=O)N[C@H](C(=O)N[C@H](C(=O)NCC(=O)N[C@@H](CC(C)C)C(=O)N1CCC[C@H]1C(=O)N[C@@H](C)C(=O)N[C@@H](CC(C)C)C(=O)N[C@H](C(=O)N[C@@H](CO)C(=O)N[C@@H](Cc1c[nH]c2ccccc12)C(=O)N[C@H](C(=O)N[C@@H](CCCCN)C(=O)N[C@@H](CCCNC(=N)N)C(=O)N[C@@H](CCCCN)C(=O)N[C@@H](CCCNC(=N)N)C(=O)N[C@@H](CCC(N)=O)C(=O)N[C@@H](CCC(N)=O)C(N)=O)[C@@H](C)CC)[C@@H](C)CC)[C@@H](C)O)[C@@H](C)O)C(C)C)C(C)C  MIC (broth microdilution, MH medium; KCTC 1621; 16 h, 37 °C): 4 µM
CC[C@H](C)[C@H](NC(=O)CN)C(=O)N[C@@H](CC(C)C)C(=O)N[C@@H](C)C(=O)N[C@@H](C)C(=O)N[C@H](C(=O)N[C@@H](CCCCN)C(=O)N[C@@H](C)C(=O)N[C@H](C(=O)N[C@@H](C)C(=O)N[C@@H](CCCCN)C(=O)N[C@@H](C)C(=O)N[C@@H](C)C(=O)NCC(N)=O)[C@@H](C)CC)[C@@H](C)CC  MIC (ATCC 29213, Mueller-Hinton broth; 12 h, 37 °C): 8 µg/mL
CC(C)C[C@H](NC(=O)CNC(=O)CNC(=O)CNC(=O)[C@H](Cc1ccc(O)cc1)NC(=O)[C@H](CC(C)C)NC(=O)[C@@H](NC(=O)CNC(=O)[C@H](Cc1ccc(O)cc1)NC(=O)[C@H](CCCCN)NC(=O)[C@H](CC(N)=O)NC(=O)[C@@H](NC(=O)[C@H](CCCCN)NC(=O)[C@H](Cc1c[nH]c2ccccc12)NC(=O)CN)[C@@H](C)O)[C@@H](C)O)C(=O)N[C@@H](CCCCN)C(=O)N[C@@H](CCCCN)C(=O)N[C@@H](CC(C)C)C(=O)N[C@@H](CC(C)C)C(=O)N[C@@H](CC(C)C)C(=O)N[C@@H](CC(C)C)C(=O)N[C@@H](CC(C)C)C(=O)N[C@@H](CCCCN)C(=O)N[C@@H](CCCCN)C(=O)N[C@@H](CC(C)C)C(=O)NCC(=O)O  MIC (ATCC 25923; added: 2 mM CaCl2): 16 µg/mL
CC[C@H](C)[C@H](NC(=O)[C@H](CCCNC(=N)N)NC(=O)[C@H](CCCNC(=N)N)NC(=O)[C@H](CCCNC(=N)N)NC(=O)[C@H](CCCNC(=N)N)NC(=O)[C@H](CC(C)C)NC(=O)[C@H](CCCNC(=N)N)NC(=O)[C@H](CO)NC(=O)[C@@H](N)CO)C(=O)N[C@H](C(=O)N[C@@H](CC(C)C)C(=O)N[C@@H](CCCNC(=N)N)C(=O)N[C@@H](CCCNC(=N)N)C(=O)N[C@@H](CCCNC(=N)N)C(=O)N[C@@H](CCCNC(=N)N)C(=O)N[C@@H](Cc1ccccc1)C(=O)N[C@@H](CO)C(=O)N[C@@H](C)C(=O)N[C@@H](Cc1ccc(O)cc1)C(N)=O)C(C)C  MIC (broth microdilution; 24 h, 37 °C): 32 µM
Cc1ccc2[nH]c3c(c2c1)CCCC3NCCc1ccc(O)cc1 (stereo not drawn)  MIC (broth microdilution): > 16 µg/mL
